Measurements from different studies.
Lines come from different studies, so protocols differ. Numbers after ± are the reported error.
GBA2: Beta-glucosidase (GBA2, Homo sapiens, UniProt Q9HCG7)
UniProt Q9HCG7, sequence (whole entry, looked up): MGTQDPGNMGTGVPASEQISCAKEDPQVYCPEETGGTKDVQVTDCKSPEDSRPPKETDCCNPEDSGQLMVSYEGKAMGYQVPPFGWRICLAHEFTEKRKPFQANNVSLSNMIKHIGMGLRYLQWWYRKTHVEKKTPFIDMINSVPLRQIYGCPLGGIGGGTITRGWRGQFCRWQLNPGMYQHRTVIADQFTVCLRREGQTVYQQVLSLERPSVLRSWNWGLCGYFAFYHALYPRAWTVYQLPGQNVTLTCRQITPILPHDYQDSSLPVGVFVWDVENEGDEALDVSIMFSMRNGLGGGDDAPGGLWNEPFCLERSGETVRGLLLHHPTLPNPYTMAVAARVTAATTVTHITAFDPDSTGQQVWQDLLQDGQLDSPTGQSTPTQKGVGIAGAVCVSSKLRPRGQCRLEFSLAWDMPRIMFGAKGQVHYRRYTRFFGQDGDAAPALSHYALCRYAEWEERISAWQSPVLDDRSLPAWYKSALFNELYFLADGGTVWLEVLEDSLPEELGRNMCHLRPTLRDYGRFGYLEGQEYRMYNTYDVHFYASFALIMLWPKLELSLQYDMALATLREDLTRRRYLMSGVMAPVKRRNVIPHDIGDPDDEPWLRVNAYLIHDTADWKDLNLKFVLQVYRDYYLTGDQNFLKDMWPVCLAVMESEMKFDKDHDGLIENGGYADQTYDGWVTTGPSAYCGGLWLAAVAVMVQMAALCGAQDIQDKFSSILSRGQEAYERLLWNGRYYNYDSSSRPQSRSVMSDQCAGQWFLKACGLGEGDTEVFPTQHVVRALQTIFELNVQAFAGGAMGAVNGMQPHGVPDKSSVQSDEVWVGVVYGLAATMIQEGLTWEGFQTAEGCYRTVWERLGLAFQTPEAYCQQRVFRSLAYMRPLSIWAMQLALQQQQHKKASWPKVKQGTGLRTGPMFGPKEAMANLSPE

CN1CCCNC(=O)c2cccc(c2)C(=O)NCCCN(C)CCCNc2cccc3c2C(=O)c2cccc(c2C3=O)NCCC1
log2 fold change (SAS; RNA-Seq, refers to: DDX19A mRNA; 1 µM, 6 h; baseline: untreated cells): -0.982

O=C(N/N=C/c1cc[n+](Cc2ccccc2)c2ccccc12)c1cncc(C(=O)N/N=C/c2cc[n+](Cc3ccccc3)c3ccccc23)n1
ΔTm (myc22 MYC G4-DNA parallel; FRET melting; 1 µM, K1 buffer, DNA 0.2 µM): 18 ± 0.5 °C

COc1ccc(C(=O)CCc2cc(C(CCc3ccc(O)cc3OC)c3ccc(O)cc3)c(O)cc2OC)cc1 (racemic)
20-OH-LTB4 level (human blood; 30 µM, with: A23187): 455 ± 191 pg/mL

CNS(=O)(=O)Nc1nccc(Cc2c(C)c3ccc(Oc4ncccc4F)cc3oc2=O)c1F
IC50 (UMUC3; cell viability; 7 days): > 1000 nM

CC(C)c1ccc(N(C)c2ccc3c(c2)OCC[C@H]3CNc2cnccc2C(=O)O)cc1
IC50 (Caov-3; cell growth or viability, ATP luminescence; 7 days): 6.47 nM

CN1CCC[C@]1(C)/C=C/S(=O)(=O)NC(=O)Nc1c2c(cc3c1CCC3)CCC2
IL-18 inhibition (human, whole blood ex vivo; 400 mg single dose, 6 h, single ascending dose, with: LPS and ATP): 80.1%

Cn1ncc2cc(-c3cncc(Cl)c3N3CCC4(CCNC4=O)CC3)ccc21
log2 fold change (LS174T; gene expression, microarray, refers to: GDF15 (PDF) mRNA; concentration not given, 4 h; baseline: untreated cells): -1.61

C[n+]1ccc(/C=N/NC(=O)c2cncc(C(=O)N/N=C/c3cc[n+](C)cc3)n2)cc1
ΔTm (myc22 MYC G4-DNA parallel; FRET melting; 1 µM, K1 buffer, DNA 0.2 µM): 4.4 ± 0.6 °C

Nc1ncc(-c2cc(-c3cnn(CC(F)(F)F)c3)ncc2F)nc1C(=O)NC1CNCC(F)C1 (stereo not drawn)
remaining binding (CIT; KINOMEscan; 1 µM; baseline: DMSO control): 79%

COC1CN([C@H]2CC[C@H]([C@@]3(C)Oc4c(Cl)cc(C(=O)NCc5c(SC)cc(C)[nH]c5=O)c(C)c4O3)CC2)C1
log2 fold change (RNA-seq, refers to: MEIOC; human, whole blood; dose not given, 24 h; baseline: pretreatment baseline): 1.01

C=CC(=O)N1[C@@H](c2ccc3c(c2)OCO3)c2[nH]c3ccccc3c2C[C@H]1C(=O)N1CCN(C)CC1
relative co-enrichment (human cyclin E1 N112C-3xFLAG:CDK2; co-IP with TMT proteomics, refers to: CKS1B; concentration not given, P61024; baseline: wild type DMSO): 199%

OC[C@H]1[C@@H](O)[C@H](O)[C@@H](O)CN1CCCCCOCC(COCCCCCN1C[C@H](O)[C@@H](O)[C@H](O)[C@@H]1CO)C12CC3CC(CC(C3)C1)C2 (stereo partly drawn)
selectivity ratio (GBA2; inhibitor, 4MU-β-D-glucopyranoside; HEK293T homogenates overexpressing GBA2; baseline: GBA1 IC50 over GBA2 IC50): 33

CCN(CC)CC(=O)Nc1cccc(-n2cc(-c3ccc4ccc(-c5cn(-c6cccc(NC(=O)CN(CC)CC)c6)nn5)cc4c3)nn2)c1
fold regulation (RCC4; PCR angiogenesis array, refers to: BAI1; 5 x IC50, 4 h, normoxia; baseline: untreated): -1.92

Cc1ncsc1-c1ccc(C(C)NC(=O)C2CC(O)CN2C(=O)C(NC(=O)CCCCCCCCCCN2CCCC(Nc3ncc(Cl)c(Nc4ccccc4S(=O)(=O)C(C)C)n3)C2)C(C)(C)C)cc1 (stereo not drawn)
log2 fold change (22Rv1; RNA-seq, refers to: SLC17A5 mRNA; concentration not given; baseline: DMSO): -1.2

C[n+]1cccc2cc(/C=N/NC(=O)c3ccc4ccc(C(=O)N/N=C/c5ccc6c(ccc[n+]6C)c5)nc4n3)ccc21
ΔTm (myc22 MYC G4-DNA parallel; FRET melting; 1 µM, K1 buffer, DNA 0.2 µM): 20 ± 0.2 °C

C=CC(=O)Nc1cccc(Cn2ncc3cnc(Nc4cnn(CCOC)c4)nc32)c1
percent of control (SGK2 human; binding, KINOMEscan; 100 nM; lower = stronger binding): 76%

C[n+]1ccc(/C=N/NC(=O)c2ccc3ccc(C(=O)N/N=C/c4cc[n+](C)cc4)nc3n2)cc1
ΔTm (myc22 MYC G4-DNA parallel; FRET melting; 1 µM, K1 buffer, DNA 0.2 µM): 6.9 ± 0.2 °C

N#Cc1ccc(-c2ccc(COCCCCCN3C[C@H](O)[C@@H](O)[C@H](O)[C@H]3CO)cc2)cc1
selectivity ratio (GBA2; inhibitor, 4MU-β-D-glucopyranoside; HEK293T homogenates overexpressing GBA2; baseline: GBA1 IC50 over GBA2 IC50): 117

CC[n+]1cccc2cc(/C=N/NC(=O)c3cncc(C(=O)N/N=C/c4ccc5c(ccc[n+]5CC)c4)n3)ccc21
ΔTm (myc22 MYC G4-DNA parallel; FRET melting; 1 µM, K1 buffer, DNA 0.2 µM): 19.6 ± 0.4 °C

C=C(NC(=O)c1csc(-c2nc3c(cc2O)-c2nc(cs2)C(=O)NC(C(C)O)C(=O)NC(=C(C)OC)c2nc(cs2)C(=O)NC2c4nc(cs4)C(=O)NC(COC(=O)c4c5c6c(cccc6n4O)COC(=O)C(OC4CC(C)(O)C(N(C)C)C(C)O4)C2OC5)c2nc-3cs2)n1)C(N)=O (stereo not drawn)
bacterial load (Streptococcus pneumoniae; -4, immunocompromised mice, lung infection, lung; 4 mg/kg/day once daily, 24 h post-dose): 6.78 log CFU/g

C[n+]1cc(/C=N/NC(=O)c2cc(C(=O)N/N=C/c3cc4ccccc4[n+](C)c3)ncn2)cc2ccccc21
ΔTm (myc22 MYC G4-DNA parallel; FRET melting; 1 µM, K1 buffer, DNA 0.2 µM, with: ds26 10 µM): 4.3 ± 0.3 °C

c1ccc(-c2n[nH]cc2-c2ccnc3ccccc23)nc1
log2 fold change (PKH3 (Candida albicans); kinase binding, MIB/MS competition; Candida albicans lysate; 1 µM; baseline: DMSO): -0.08

COc1cc(O)ccc1CCC(c1ccc(O)cc1)c1cc2c(c(C)c1O)OC(c1ccc(O)cc1)CC2 (mixture of isomers)
DHA level (human blood; 10 µM, with: A23187): 112000 ± 34900 pg/mL

C[n+]1cc(/C=N/NC(=O)c2cccc(C(=O)N/N=C/c3cc4ccccc4[n+](C)c3)n2)cc2ccccc21
ΔTm (myc22 MYC G4-DNA parallel; FRET melting; 1 µM, K1 buffer, DNA 0.2 µM, with: ds26 10 µM): 17.5 ± 0.8 °C

Repeated from above:
O=C(N/N=C/c1cc[n+](Cc2ccccc2)c2ccccc12)c1cncc(C(=O)N/N=C/c2cc[n+](Cc3ccccc3)c3ccccc23)n1
ΔTm (myc22 MYC G4-DNA parallel; FRET melting; 1 µM, K1 buffer, DNA 0.2 µM): 18 ± 0.5 °C

C[n+]1cc(/C=N/NC(=O)c2cccc(C(=O)N/N=C/c3cc4ccccc4[n+](C)c3)n2)cc2ccccc21
ΔTm (myc22 MYC G4-DNA parallel; FRET melting; 1 µM, K1 buffer, DNA 0.2 µM, with: ds26 10 µM): 17.5 ± 0.8 °C

C=C(NC(=O)c1csc(-c2nc3c(cc2O)-c2nc(cs2)C(=O)NC(C(C)O)C(=O)NC(=C(C)OC)c2nc(cs2)C(=O)NC2c4nc(cs4)C(=O)NC(COC(=O)c4c5c6c(cccc6n4O)COC(=O)C(OC4CC(C)(O)C(N(C)C)C(C)O4)C2OC5)c2nc-3cs2)n1)C(N)=O (stereo not drawn)
bacterial load (Streptococcus pneumoniae; -4, immunocompromised mice, lung infection, lung; 4 mg/kg/day once daily, 24 h post-dose): 6.78 log CFU/g

CN1CCCNC(=O)c2cccc(c2)C(=O)NCCCN(C)CCCNc2cccc3c2C(=O)c2cccc(c2C3=O)NCCC1
log2 fold change (SAS; RNA-Seq, refers to: DDX19A mRNA; 1 µM, 6 h; baseline: untreated cells): -0.982
